Results pooled from the literature.
Compare with care: the assays were run in different laboratories.
Effect on: cell growth or viability

CC(=NNC(N)=S)c1ccc(Nc2nnc(-c3ccc(Cl)cc3)c3ccccc23)cc1  viability (HepG2; MTT; 0.625 µM, 24 h): 7.6%
CNC(=O)c1cc(Oc2ccc(NC(=O)Nc3ccc(Cl)c(C(F)(F)F)c3)cc2)ccn1  viability (HCT-116; SRB; 10 nM, 48 h): 85.7%
CC(=NNC(=O)c1ccncc1)c1ccc(Nc2nnc(-c3ccc(Cl)cc3)c3ccccc23)cc1  viability (HepG2; MTT; 0.625 µM, 24 h): 7.84%
Cc1c(Cc2ccccc2)c(=O)oc2c(C)c(OCC(=O)NN=Cc3ccc([N+](=O)[O-])cc3)ccc12  viability (MDA-MB-231; MTT; 62.5 µg/mL): 32.7%
COc1ccc(NC(=O)c2c(Nc3ccccc3)sc(C#N)c2NC(=O)CNc2ccc(OC)c(OC)c2)cc1  viability (HCT-116; SRB; 10 nM, 48 h): 87.3%
O=C(Nc1ccc(Oc2nnc(-c3ccc(Cl)cc3)c3ccccc23)cc1)c1ccccc1  viability (HepG2; MTT; 0.625 µM, 24 h): 12.1%
COc1ccc(NC(=O)c2c(Nc3ccccc3)sc(C(=O)NN=Cc3ccc(Cl)cc3)c2NC(C)=O)cc1  viability (HCT-116; SRB; 0.1 µM, 48 h): 82.5%
NC(=S)NN=C(CS(=O)(=O)c1ccccc1)c1ccc(F)cc1  viability (SK-MEL-23; MTT; 1.6 µM, 48 h): 68.8%
CC(=O)Nc1ccc(Oc2nnc(-c3ccc(Cl)cc3)c3ccccc23)cc1  viability (HepG2; MTT; 0.312 µM, 24 h): 35.2%
COc1ccc(NC(=O)Nc2ccc(-c3cn(Cc4cccc(Cl)c4)nn3)cc2)cc1  viability (Huh-7; CCK-8; 50 µM, 48 h): 88.4%
CC(=O)Nc1cccc(-n2c(=O)n(C3CC3)c(=O)c3c(Nc4ccc(I)cc4F)n(C)c(=O)c(C)c32)c1  viability (SW1417; resazurin; 50 nM, 72 h): 55.3%
COc1ccc(NC(=O)c2c(Nc3ccccc3)sc(C(=O)NN=Cc3ccc(Br)cc3)c2NC(C)=O)cc1  viability (HCT-116; SRB; 0.1 µM, 48 h): 85.1%
O=C(C=Cc1ccccc1)Nc1ccc(Oc2nnc(-c3ccc(Cl)cc3)c3ccccc23)cc1  viability (HepG2; MTT; 2.5 µM, 24 h): 12.1%
COc1ccc(NC(=O)c2c(Nc3ccccc3)sc(C(=O)NN=Cc3ccc(OC)c(O)c3)c2NC(C)=O)cc1  viability (HCT-116; SRB; 1 nM, 48 h): 100%
Cc1ccc(C(CS(=O)(=O)c2ccccc2)=NNc2nc(-c3ccc(OCCCCOc4ccc(-c5csc(NN=C(CS(=O)(=O)c6ccccc6)c6ccc(C)cc6)n5)cc4)cc3)cs2)cc1  viability (SK-MEL-23; MTT; 25 µM, 48 h): 48%
COc1cccc2c1C(=O)c1c(O)c3c(c(O)c1C2=O)C[C@@](O)(C(=O)CO)C[C@@H]3O[C@H]1C[C@H](N)[C@H](O)[C@H](C)O1  viability (Caco-2; MTT; 50 µg/mL, 48 h, serum-free): 12.8%
Cc1c(Cc2ccccc2)c(=O)oc2c(C)c(OCC(=O)NN=Cc3ccccc3)ccc12  viability (MDA-MB-231; MTT; 500 µg/mL): 4.28%
COc1ccc(NC(=O)Nc2cccc(-c3cn(Cc4ccc(C)cc4)nn3)c2)cc1  viability (Huh-7; CCK-8; 50 µM, 48 h): 65.2%
COc1ccc(NC(=O)c2c(Nc3ccccc3)sc(C#N)c2NC(=O)CNc2ccccc2[N+](=O)[O-])cc1  viability (HCT-116; SRB; 1 µM, 48 h): 81.5%
C=CCNC(=S)NNC(=O)COc1ccc2c(C)c(CC)c(=O)oc2c1C  viability (MDA-MB-231; MTT; 125 µg/mL): 20.4%
O=C(Nc1ccc(Oc2nnc(-c3ccc(Cl)cc3)c3ccccc23)cc1)c1cccc([N+](=O)[O-])c1  viability (HepG2; MTT; 2.5 µM, 24 h): 3.63%
COc1ccc(NC(=O)c2c(Nc3ccccc3)sc(C#N)c2NC(=O)CNc2ccccc2Cl)cc1  viability (HCT-116; SRB; 100 µM, 48 h): 80.3%
